Measured values from different studies.
Compare with care: the assays were run in different laboratories. Values joined by “and” are separate records of one study, mostly repeats; a detail may differ. Numbers after ± are the reported error.
UniProt P20813, sequence (whole entry, looked up): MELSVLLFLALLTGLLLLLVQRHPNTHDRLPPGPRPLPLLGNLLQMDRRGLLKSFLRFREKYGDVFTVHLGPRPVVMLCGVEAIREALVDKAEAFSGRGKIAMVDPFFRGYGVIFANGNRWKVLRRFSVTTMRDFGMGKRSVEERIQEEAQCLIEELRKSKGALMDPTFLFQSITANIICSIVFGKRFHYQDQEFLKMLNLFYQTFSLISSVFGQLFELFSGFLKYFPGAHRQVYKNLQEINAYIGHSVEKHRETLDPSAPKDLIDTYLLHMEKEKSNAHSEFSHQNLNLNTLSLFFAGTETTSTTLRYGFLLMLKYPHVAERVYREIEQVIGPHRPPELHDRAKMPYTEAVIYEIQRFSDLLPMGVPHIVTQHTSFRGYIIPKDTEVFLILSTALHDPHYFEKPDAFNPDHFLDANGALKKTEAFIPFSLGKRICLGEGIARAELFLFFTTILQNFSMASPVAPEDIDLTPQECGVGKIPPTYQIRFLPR

Compound	tested on	test	system	conditions	scale	quantity	result
C=CC(=O)N1CCCC(n2c(=O)c3ncccc3n(Cc3ccc(Oc4ccccc4)cc3)c2=O)C1 (stereo not drawn)		metabolic stability	male CD-1 mouse, hepatocytes	1 µM, 30 min		compound remaining	8.2%
CCCCN1C(=O)c2cccc3c(NCCCCN4CCOCC4)ccc(c23)C1=O			DMF			fluorescence quantum yield	0.41
C=C(NC(=O)c1csc(-c2nc3c(cc2O)-c2nc(cs2)C(=O)NC(C(C)O)C(=O)NC(=C(C)OC)c2nc(cs2)C(=O)NC2c4nc(cs4)C(=O)NC(COC(=O)c4c5c6c(cccc6n4O)COC(=O)C(OC4CC(C)(O)C(N(C)C)C(C)O4)C2OC5)c2nc-3cs2)n1)C(N)=O (stereo not drawn)			ICR mice, Streptococcus pneumoniae ATCC 49169 infected, immunocompromised, blood	intravenous, 16 mg/kg/day once daily		AUC(0-t)	1810 ng·h/mL
CNc1cc(N)c(C(N)=O)cn1			Han Wistar rats, male, plasma	oral, 30 mg/kg, 8.00 h		concentration at time	1620 nM
CC(C)[C@H](NC(=O)[C@H](Cc1ccccc1)NC(=O)[C@H](Cc1ccccc1)NC(=O)OCC1c2ccccc2-c2ccccc21)C(=O)N[C@@H](CCC(=O)O)C(=O)N[C@@H](CCC(=O)O)C(N)=O		CD spectroscopy	peptide nanofibres			β-turn content	12.3%
C=CC(=O)Nc1cc(Nc2nccc(-c3c[nH]c4ccccc34)n2)c(OC)cc1N(C)CCN(C)C		storage stability	human dried blood spot	2 h, on ice, HQC level		recovery	107%
CN1CCC[C@]1(C)/C=C/S(=O)(=O)NC(=O)Nc1c2c(cc3c1CC(O)C3)CCC2 (stereo partly drawn)			human, plasma	oral, 12.5 mg twice daily of parent drug, day 14, metabolite of dosed drug		Cmax at second steady-state dose	1500 ng/mL
CNC(=O)C1CCCN(C(=O)C2CC3CCC2N3C(=O)[C@@H]2C[C@@H](O)CN2C(=O)NCc2cccc(Cl)c2F)C1 (mixture of isomers)	Cytochrome P450 2B6 (CYP2B6, Homo sapiens, UniProt P20813)	preincubation with NADPH	human	0.617 µM	relative to: negative control	remaining activity	104% and 106% and 92.7%
COC1CN([C@H]2CC[C@H]([C@@]3(C)Oc4c(Cl)cc(C(=O)NCc5c(SC)cc(C)[nH]c5=O)c(C)c4O3)CC2)C1		RNA-seq, refers to: FAM110C mouse homolog	mouse, HT-1376 xenograft, whole blood	dose not given	relative to: vehicle	log2 fold change	2.93
CN([O-])C(=O)CN1CCN(CC(=O)N(C)[O-])CCN(Cc2ccccn2)CC1.[89Zr+4]			mouse, spleen	intravenous, 4 h		tracer uptake	0.25 %ID/g
CC(C)Cc1ccc(C(C)C(=O)N[C@@H](CCCCNC(=O)CCOCCOCCOCCOCCOCCOCCNC(=O)CN2CCN(CC(=O)[O-])CCN(CC(=O)[O-])CCN(CC(=O)[O-])CC2)C(=O)Nc2cccc3c(C(=O)NCC(=O)N4CC(F)(F)C[C@H]4C#N)ccnc23)cc1.[177Lu+3] (stereo partly drawn)			mouse, U-87 MG tumour xenograft, kidneys	24 h		tissue uptake	0.95 ± 0.25 %ID/g
Cc1ncsc1-c1ccc(C(C)NC(=O)C2CC(O)CN2C(=O)C(NC(=O)CCCCCCCCCCN2CCCC(Nc3ncc(Cl)c(Nc4ccccc4S(=O)(=O)C(C)C)n3)C2)C(C)(C)C)cc1 (stereo not drawn)	22Rv1	RNA-seq, refers to: USP27X mRNA		concentration not given	relative to: DMSO	log2 fold change	-2.04
Cc1ccc(C(NC(=O)c2cc(-c3ccccc3)n(-c3ccccc3)n2)c2ccncc2)cc1 (stereo not drawn)			human liver microsomes	4 h		depletion	< 15%
O=C(Nc1cnccc1-c1ccc([18F])nc1)c1ccnc(NC(=O)C2CC2)c1			FVB/NJ mice, both sexes, liver	intravenous, 15 min, median, no P-gp inhibitor		SUV	8.77
Nc1ncc(-c2cc(-c3cnn(CC(F)(F)F)c3)ncc2F)nc1C(=O)NC1CNCC(F)C1 (stereo not drawn)	RAF1	KINOMEscan		1 µM	relative to: DMSO control	remaining binding	99%
CN1CCCNC(=O)c2cccc(c2)C(=O)NCCCN(C)CCCNc2cccc3c2C(=O)c2cccc(c2C3=O)NCCC1			mouse xenograft model	dose not given, day 10, group mean		body weight	26.7 g
Cc1c(Cc2cc(Cl)cc(O[C@H](C)C(=O)O)c2)c2ccc(C(=O)N[C@@H](C)c3ccc(C(C)(C)C)cc3)cc2n1CC(C)C			human liver microsomes			half-life	56 min
CC(C)OCCOCc1ccc(OCC(O)CN(N=O)C(C)C)cc1 (stereo not drawn)	Salmonella typhimurium	Ames test	TA100	15.8 µg/plate, 30 % rat S9	relative to: solvent control	revertant fold increase	1 fold
CCCC[C@H](NC(C)=O)C(=O)N[C@@H](CO)C(=O)N[C@H](C(=O)N1CCC[C@H]1C(=O)N[C@]1(C)CCCCCCC=CCCC[C@@](C)(C(=O)N[C@@H](Cc2ccccc2)C(=O)N[C@@H](CCCCN)C(=O)N[C@@H](CCCNC(=N)N)C(=O)N[C@@H](CC(C)C)C(=O)N[C@@H](CCC(N)=O)C(N)=O)NC(=O)[C@H](CCCNC(=N)N)NC(=O)[C@H](CCCC)NC(=O)[C@H](CC(C)C)NC(=O)[C@H](CCCNC(=N)N)NC(=O)[C@H](CCCNC(=N)N)NC(=O)[C@H](CCCNC(=N)N)NC1=O)[C@@H](C)O	proteinase K	LC-MS		25 µM, 307.5 min, pH 7.4		remaining peptide	61.9%
C/C(N)=N/C(=N\S(=O)(=O)c1ccc(C(F)(F)F)cc1)N1C[C@H](c2ccccc2)C(c2ccc(Cl)cc2)=N1			male Sprague-Dawley rat, bile and urine	intravenous, 3 mg/kg	relative to: dose	biliary and urinary excretion	< 1%
Cc1nn(-c2nc3c(F)cc(F)cc3s2)c(O)c1C(c1ccc(C(F)(F)F)cc1)c1c(C)nn(-c2nc3c(F)cc(F)cc3s2)c1O			ICR mouse, plasma	oral, 50 mg/kg		Clast	226 ng/mL and 509 ng/mL and 2880 ng/mL
O=C1CCC(N2Cc3cc(N4CCN(CC5CCN(c6ccc(C7c8ccc(OC9OC(C(=O)O)C(O)C(O)C9O)cc8CCC7c7ccccc7)cc6)CC5)CC4)ccc3C2=O)C(=O)N1 (stereo not drawn)			Sprague-Dawley rat, male, bile duct-cannulated, bile	0 to 72 h	relative to: dose	biliary excretion	0.62%
CNS(=O)(=O)Nc1nccc(Cc2c(C)c3ccc(Oc4ncccc4F)cc3oc2=O)c1F	NCI-H2405	cell viability, CellTiter-Glo		7 days		IC50	3.25 nM
C=CC(=O)Nc1cccc(Cn2ncc3cnc(Nc4cnn(CCOC)c4)nc32)c1	MLK2 human	binding, KINOMEscan		100 nM	lower = stronger binding	percent of control	56%

For quick reference, copied from above:
Compound	tested on	test	system	conditions	scale	quantity	result
CC(C)OCCOCc1ccc(OCC(O)CN(N=O)C(C)C)cc1 (stereo not drawn)	Salmonella typhimurium	Ames test	TA100	15.8 µg/plate, 30 % rat S9	relative to: solvent control	revertant fold increase	1 fold
CCCC[C@H](NC(C)=O)C(=O)N[C@@H](CO)C(=O)N[C@H](C(=O)N1CCC[C@H]1C(=O)N[C@]1(C)CCCCCCC=CCCC[C@@](C)(C(=O)N[C@@H](Cc2ccccc2)C(=O)N[C@@H](CCCCN)C(=O)N[C@@H](CCCNC(=N)N)C(=O)N[C@@H](CC(C)C)C(=O)N[C@@H](CCC(N)=O)C(N)=O)NC(=O)[C@H](CCCNC(=N)N)NC(=O)[C@H](CCCC)NC(=O)[C@H](CC(C)C)NC(=O)[C@H](CCCNC(=N)N)NC(=O)[C@H](CCCNC(=N)N)NC(=O)[C@H](CCCNC(=N)N)NC1=O)[C@@H](C)O	proteinase K	LC-MS		25 µM, 307.5 min, pH 7.4		remaining peptide	61.9%
